Experimental data gathered from unrelated publications.
Lines come from different studies, so protocols differ. ± marks the error that the study gave.
UniProt O60656, sequence (whole entry, looked up): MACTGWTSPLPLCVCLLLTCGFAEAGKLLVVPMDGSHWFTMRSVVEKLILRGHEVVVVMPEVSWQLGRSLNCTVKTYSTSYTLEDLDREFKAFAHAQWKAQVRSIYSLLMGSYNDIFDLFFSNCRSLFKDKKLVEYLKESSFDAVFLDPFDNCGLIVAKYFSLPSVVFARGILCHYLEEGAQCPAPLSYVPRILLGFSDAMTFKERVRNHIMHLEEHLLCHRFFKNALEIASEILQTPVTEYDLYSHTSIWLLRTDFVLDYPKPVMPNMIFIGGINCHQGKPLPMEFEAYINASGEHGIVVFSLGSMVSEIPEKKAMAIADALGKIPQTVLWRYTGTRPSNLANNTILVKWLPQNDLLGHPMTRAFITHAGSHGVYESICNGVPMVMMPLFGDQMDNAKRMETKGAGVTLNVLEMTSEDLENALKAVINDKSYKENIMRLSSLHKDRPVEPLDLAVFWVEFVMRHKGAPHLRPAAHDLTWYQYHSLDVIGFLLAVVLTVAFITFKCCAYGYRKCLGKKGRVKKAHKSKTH

`insulin degludec` has an AUC(13-17 h) of 0.0101 µM·h (human end-stage renal disease, serum; subcutaneous, 0.4 U/kg, dosed 13 h before hemodialysis).
The tissue uptake of CC(C)[C@H](NC(=O)[C@@H]1CCCN1C(=O)[C@H](CCCNC(=N)N)NC(=O)[C@H](CS)NC(=O)[C@H](Cc1c[nH]c2ccccc12)NC(=O)[C@H](CCCNC(=N)N)NC(=O)[C@@H](Cc1ccccc1)NC(=O)[C@H](Cc1c[nH]cn1)NC(=O)[C@H](CCC(=O)O)NC(=O)[C@H](CS)NC(=O)[C@H](CS)NC(=O)[C@H](CCCCN)NC(=O)[C@@H]1CC(=O)N[C@@H](CCCNC(=N)N)C(=O)N[C@@H](C)C(=O)N[C@@H](CC(=O)O)C(=O)N[C@H](Cc2ccc(O)cc2)C(=O)N1)C(N)=O [technetium-99m labelled] is reported as 0.17 ± 0.08 %ID/g (C57 mice, bone; intravenous, 0.037 MBq, 4 h).
For `oxyntomodulin`, freeze-thaw stability read “unstable” (K2-EDTA human plasma; three freeze-thaw cycles).
The tissue uptake of CSCC[C@H](NC(=O)[C@H](CC(C)C)NC(=O)[C@H](Cc1c[nH]cn1)NC(=O)CNC(=O)[C@@H](NC(=O)[C@H](C)NC(=O)[C@H](Cc1c[nH]c2ccccc12)NC(=O)[C@H](CCC(N)=O)NC(=O)CCCCCNC(=O)[C@H](CCC(=O)NCCCC[C@@H]1NC(=O)[C@@H](Cc2ccc(O)cc2)NC(=O)[C@H](CC(=O)O)NC(=O)CNC(=O)[C@H](CCCNC(=N)N)NC1=O)NC(=O)CN1CCN(CC(=O)O)CCN(CC(=O)O)CC1)C(C)C)C(N)=O [copper-64 labelled] is reported as 4.65 ± 0.78 %ID/g (ICR SCID mouse, female, kidneys; intravenous, 750 kBq, 1 h).
The concentration of `Insulin human` is reported as 0 pg/mg tissue (ELISA; rat, ventral cortex; intranasal, 20 µg per nostril, 360 min).
With COc1cccc2c1C(=O)c1c(O)c3c(c(O)c1C2=O)C[C@@](O)(C(=O)CO)C[C@@H]3O[C@H]1C[C@H](NC(=O)[C@@H]2CCCN2C(=O)CN)[C@H](O)[C@H](C)O1 the AUC was 59.6 µM·h (mouse, E0771 tumour-bearing, tumor; intravenous, 92 µmol/kg PhAc-ALGP-Dox).
With `UGT1A9 (Homo sapiens, UniProt O60656)` the Vmax was 0.00118 µmol/min/mg (CCc1ccc(O)cc1; steady-state kinetics; pH 7.4, 37 °C).
With `rnpA F107W (Bacillus subtilis)` the pKa was 6.03 (NMR, item: His22; 25 °C, Na2SO4 20 mM, numbering of the source).
`insulin glulisine` gave an AUC(0-1 h) of 0.000272 µM·h (obese type 2 diabetes patients, serum; subcutaneous, 0.2 U/kg, geometric mean).

Excerpt of the above:
With COc1cccc2c1C(=O)c1c(O)c3c(c(O)c1C2=O)C[C@@](O)(C(=O)CO)C[C@@H]3O[C@H]1C[C@H](NC(=O)[C@@H]2CCCN2C(=O)CN)[C@H](O)[C@H](C)O1 the AUC was 59.6 µM·h (mouse, E0771 tumour-bearing, tumor; intravenous, 92 µmol/kg PhAc-ALGP-Dox).
